Assay results from different studies.
Each numbered part is a random draw from the data of one study; scales do not carry over between parts. Values joined by “and” are separate records of one study, mostly repeats; a detail may differ.
Sequence of UniProt Q96SW2 (whole entry, looked up): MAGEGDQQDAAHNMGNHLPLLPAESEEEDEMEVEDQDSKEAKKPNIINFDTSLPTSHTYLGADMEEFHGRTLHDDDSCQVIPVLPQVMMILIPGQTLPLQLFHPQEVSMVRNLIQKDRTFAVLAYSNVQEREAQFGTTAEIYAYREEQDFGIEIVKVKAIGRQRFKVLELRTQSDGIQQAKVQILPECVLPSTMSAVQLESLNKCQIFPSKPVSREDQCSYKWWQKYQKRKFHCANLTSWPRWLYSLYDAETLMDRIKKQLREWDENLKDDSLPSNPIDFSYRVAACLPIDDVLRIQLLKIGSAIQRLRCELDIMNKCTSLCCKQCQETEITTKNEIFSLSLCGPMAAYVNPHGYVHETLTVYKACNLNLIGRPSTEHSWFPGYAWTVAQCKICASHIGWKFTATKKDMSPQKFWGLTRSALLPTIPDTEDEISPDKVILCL
Sequence of UniProt Q8IWQ3 (whole entry, looked up): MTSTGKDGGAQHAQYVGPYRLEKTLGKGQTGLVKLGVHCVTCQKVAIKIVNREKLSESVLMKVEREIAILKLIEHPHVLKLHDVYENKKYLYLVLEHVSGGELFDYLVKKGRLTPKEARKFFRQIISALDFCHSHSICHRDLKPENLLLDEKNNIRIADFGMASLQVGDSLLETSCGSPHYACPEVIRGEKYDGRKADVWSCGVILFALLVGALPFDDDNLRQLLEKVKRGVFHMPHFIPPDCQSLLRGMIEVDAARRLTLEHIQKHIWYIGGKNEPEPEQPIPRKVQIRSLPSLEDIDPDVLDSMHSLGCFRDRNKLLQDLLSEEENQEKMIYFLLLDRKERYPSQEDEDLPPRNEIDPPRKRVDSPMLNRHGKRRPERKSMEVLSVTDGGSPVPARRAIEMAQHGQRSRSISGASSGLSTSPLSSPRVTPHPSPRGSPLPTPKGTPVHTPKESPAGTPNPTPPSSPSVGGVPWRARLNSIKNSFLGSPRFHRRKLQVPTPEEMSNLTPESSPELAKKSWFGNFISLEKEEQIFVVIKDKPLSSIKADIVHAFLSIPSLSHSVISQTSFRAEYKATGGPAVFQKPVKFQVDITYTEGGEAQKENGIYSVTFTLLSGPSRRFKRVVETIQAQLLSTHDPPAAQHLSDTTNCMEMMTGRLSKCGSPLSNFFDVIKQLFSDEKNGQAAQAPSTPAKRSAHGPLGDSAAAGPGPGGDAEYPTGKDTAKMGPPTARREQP

Series 1 — observed: thermal unfolding; method: differential scanning fluorimetry; tested at: 5.5 µM; direction: higher = more unfolded; quantity: SYPRO Orange fluorescence
SMILES: C[C@@H]1CN(c2ccc(-c3cc(C(=O)NCCOCCOCCOCCOCCNC(=O)Cn4cc(-c5[nH]cc(C(=O)N[C@@H](CC(N)=O)c6ccc(F)c(Cl)c6)c5-c5ccc(Cl)cc5F)cn4)ccc3F)cc2NC(=O)c2c[nH]c(=O)cc2C(F)(F)F)C[C@H](C)N1C
WDR5: WD repeat-containing protein 5 (WDR5, Homo sapiens, UniProt P61964)
DCAF1: DDB1- and CUL4-associated factor 1 (DCAF1, Homo sapiens, UniProt Q9Y4B6)
Sequence of UniProt Q9Y4B6 (whole entry, looked up): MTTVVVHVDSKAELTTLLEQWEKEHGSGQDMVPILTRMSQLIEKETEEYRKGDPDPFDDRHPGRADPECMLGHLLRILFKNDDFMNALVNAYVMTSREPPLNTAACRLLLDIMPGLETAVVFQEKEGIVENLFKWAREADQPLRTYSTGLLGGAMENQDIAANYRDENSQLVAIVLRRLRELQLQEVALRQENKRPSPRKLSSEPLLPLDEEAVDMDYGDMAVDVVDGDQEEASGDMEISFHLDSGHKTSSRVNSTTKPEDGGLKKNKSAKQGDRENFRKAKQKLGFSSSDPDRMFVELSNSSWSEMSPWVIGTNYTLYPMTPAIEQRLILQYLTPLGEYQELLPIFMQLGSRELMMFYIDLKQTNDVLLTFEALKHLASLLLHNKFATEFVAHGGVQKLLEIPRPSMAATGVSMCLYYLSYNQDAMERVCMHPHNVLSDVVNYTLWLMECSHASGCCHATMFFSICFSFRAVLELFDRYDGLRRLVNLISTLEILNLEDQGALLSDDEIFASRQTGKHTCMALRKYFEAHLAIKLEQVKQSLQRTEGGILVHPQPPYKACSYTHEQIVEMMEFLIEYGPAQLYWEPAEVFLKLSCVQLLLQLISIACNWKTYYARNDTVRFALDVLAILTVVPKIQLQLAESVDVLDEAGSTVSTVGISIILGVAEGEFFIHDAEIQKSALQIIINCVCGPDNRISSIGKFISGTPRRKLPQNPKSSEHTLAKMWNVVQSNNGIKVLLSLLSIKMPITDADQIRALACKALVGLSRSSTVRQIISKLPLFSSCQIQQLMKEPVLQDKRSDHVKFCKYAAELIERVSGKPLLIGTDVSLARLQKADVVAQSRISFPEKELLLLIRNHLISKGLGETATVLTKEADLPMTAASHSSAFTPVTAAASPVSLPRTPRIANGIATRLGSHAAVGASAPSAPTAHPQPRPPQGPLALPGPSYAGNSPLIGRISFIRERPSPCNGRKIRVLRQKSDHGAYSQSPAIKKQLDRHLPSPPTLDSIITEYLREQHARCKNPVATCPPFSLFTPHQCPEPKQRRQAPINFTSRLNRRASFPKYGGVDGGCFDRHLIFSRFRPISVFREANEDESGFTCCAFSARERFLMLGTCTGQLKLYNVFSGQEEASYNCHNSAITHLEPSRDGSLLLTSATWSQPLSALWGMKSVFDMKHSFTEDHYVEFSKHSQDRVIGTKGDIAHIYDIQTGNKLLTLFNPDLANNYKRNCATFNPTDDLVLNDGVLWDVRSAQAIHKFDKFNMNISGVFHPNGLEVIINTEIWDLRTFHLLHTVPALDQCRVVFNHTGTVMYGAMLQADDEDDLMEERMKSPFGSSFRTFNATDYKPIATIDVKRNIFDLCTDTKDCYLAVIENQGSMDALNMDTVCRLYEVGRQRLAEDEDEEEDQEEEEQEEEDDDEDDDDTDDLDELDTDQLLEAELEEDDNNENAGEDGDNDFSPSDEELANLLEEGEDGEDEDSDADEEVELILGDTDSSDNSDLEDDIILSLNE
WDR5; 87.61 °C: 43400 a.u.
WDR5; 46.4 °C: 14300 a.u.
DCAF1; 50.6 °C: 15000 a.u.
WDR5; 74.41 °C: 10100 a.u.
DCAF1; 39.4 °C: 10100 a.u.
DCAF1; 45 °C: 12200 a.u.
DCAF1; 67.21 °C: 56700 a.u.

Series 2 — observed: binding; mode: competitor; method: NanoBRET; cells: HEK293; quantity: normalized BRET
SMILES: CN1CCC[C@H]1COc1nc2c(c(N3CCN(C(=O)C4CC4)[C@@H](CC#N)C3)n1)CCN(c1cccc3cccc(Cl)c13)C2
KRAS Q61R: GTPase KRas (KRAS, Homo sapiens, UniProt P01116, Q61R)
GTPase KRas (KRAS, Homo sapiens, UniProt P01116, Q61L); 3.7 µM: 57.7% and 55.1% and 45.6%
KRAS Q61R; 11.1 µM: 100% and 72.6% and 72.1%
KRAS Q61R; 1.69 nM: 99.3% and 88.5% and 94.3%

Other studies, line by line
PKMYT1: Membrane-associated tyrosine- and threonine-specific cdc2-inhibitory kinase (PKMYT1, Homo sapiens, UniProt Q99640)
Sequence of UniProt Q99640 (whole entry, looked up): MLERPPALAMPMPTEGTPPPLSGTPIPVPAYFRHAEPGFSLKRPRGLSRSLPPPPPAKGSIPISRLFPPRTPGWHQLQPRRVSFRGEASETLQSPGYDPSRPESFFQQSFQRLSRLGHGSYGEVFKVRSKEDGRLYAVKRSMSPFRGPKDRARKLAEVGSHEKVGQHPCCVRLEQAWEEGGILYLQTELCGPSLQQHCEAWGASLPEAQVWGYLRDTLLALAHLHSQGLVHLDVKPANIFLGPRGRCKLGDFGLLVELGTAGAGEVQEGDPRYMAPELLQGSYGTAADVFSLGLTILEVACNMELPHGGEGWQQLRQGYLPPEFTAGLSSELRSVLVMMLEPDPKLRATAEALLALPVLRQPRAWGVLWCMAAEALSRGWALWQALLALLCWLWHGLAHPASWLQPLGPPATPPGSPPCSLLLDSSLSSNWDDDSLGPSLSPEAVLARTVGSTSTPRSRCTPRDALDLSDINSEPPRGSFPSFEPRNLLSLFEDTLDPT
Cc1ccc(O)c(C)c1-c1cnc2[nH]c(-c3cnc(N4CCC(CN5CCN(c6ccc7c(c6)C(=O)N(C6CCC(=O)NC6=O)C7=O)CC5)CC4)nc3)cc2c1C#N (stereo not drawn) — DC50 (PKMYT1; protein degradation, degrader, immunoblotting; HCC1569; 24 h): 1 nM
CN(C1COC1)C(C)(C)/C=C(\C#N)C(=O)N1CCC[C@H]1Cn1nc(-c2ccc(Oc3ccccc3)cc2F)c2c(N)ncnc21 — inhibition (Serine/threonine-protein kinase BRSK2 (BRSK2, Homo sapiens, UniProt Q8IWQ3); kinase activity; 1 µM): -2%
Cc1ccc(O)c(C)c1-c1cnc2[nH]c(-c3cnc(N4CCC5(CC4)CC(N4CCN(c6ccc(N[C@H]7CCC(=O)NC7=O)cc6F)CC4)CO5)nc3)cc2c1C#N (single isomer, unassigned) — binding (Protein cereblon (CRBN, Homo sapiens, UniProt Q96SW2); 10000 nM): 50% and 47.1%
Cc1ccc(O)c(C)c1-c1cnc2[nH]c(-c3cnc(N4CCC5(CC4)CC(N4CCN(c6cc7c(cc6F)c(N6CCC(=O)NC6=O)nn7C)CC4)CO5)nc3)cc2c1C#N (racemic) — inhibition (PKMYT1; binding, HTRF; 1000 nM): 99.6%
Cc1ccc(O)c(C)c1-c1cnc2[nH]c(-c3cnc(N)nc3)cc2c1C#N — NanoBRET signal (PKMYT1; target engagement, NanoBRET; 1000 nM): 18.1 mBU and 18.5 mBU

Excerpt of the above (other studies, line by line):
CN(C1COC1)C(C)(C)/C=C(\C#N)C(=O)N1CCC[C@H]1Cn1nc(-c2ccc(Oc3ccccc3)cc2F)c2c(N)ncnc21 — inhibition (Serine/threonine-protein kinase BRSK2 (BRSK2, Homo sapiens, UniProt Q8IWQ3); kinase activity; 1 µM): -2%
Cc1ccc(O)c(C)c1-c1cnc2[nH]c(-c3cnc(N4CCC5(CC4)CC(N4CCN(c6ccc(N[C@H]7CCC(=O)NC7=O)cc6F)CC4)CO5)nc3)cc2c1C#N (single isomer, unassigned) — binding (Protein cereblon (CRBN, Homo sapiens, UniProt Q96SW2); 10000 nM): 50% and 47.1%
